Measured values collected from several papers.
Parts stem from different laboratories: compare values within a part only. Changes are numbered by the printed parent chain.

Block 1
Target: RING finger protein unkempt homolog, zinc fingers 1-6, SBP tag (UNK, Homo sapiens, UniProt Q9C0B0, residues 30-357)
Chain of UniProt Q9C0B0 (30-357, looked up): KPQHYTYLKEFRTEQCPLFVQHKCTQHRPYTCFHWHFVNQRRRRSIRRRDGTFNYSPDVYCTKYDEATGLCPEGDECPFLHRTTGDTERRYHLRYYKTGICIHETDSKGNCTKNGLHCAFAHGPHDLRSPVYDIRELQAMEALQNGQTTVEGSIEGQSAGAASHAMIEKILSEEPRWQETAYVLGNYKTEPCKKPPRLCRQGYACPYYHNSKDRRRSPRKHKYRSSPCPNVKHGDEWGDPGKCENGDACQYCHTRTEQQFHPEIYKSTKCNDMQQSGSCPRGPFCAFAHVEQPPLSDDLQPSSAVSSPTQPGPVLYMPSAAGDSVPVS
Technique: RNA Bind-n-Seq
Molecule type: RNA
Matrix: in vitro
Concentration: 100 nM
Setting: RNA with constant flanks, vertebrate orthologous sites, ends assumed
Relative to: input RNA pool
Direction: higher = stronger binding
Measurement: bound/input enrichment
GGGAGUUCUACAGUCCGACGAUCGUAUCUUGGUUUGGGGUAGAGGGGAGGGAGGGGCAGGACUGUGGAAUCUCUCCGGUAUAUGGGUAGAUAAGUGGACCUAUGUUAACCUCUGGGGCAUCUGUUUUGGGGGUGAGUAUGGGUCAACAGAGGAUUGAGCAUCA: 0.478 ratio
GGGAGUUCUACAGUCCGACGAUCGCUAGCCCAGGAUCCCUACAGGCUGGCUCAAGACGCGUACAGGUUAGGCCACGACCCCUACCGGGUAGGGCACGACCCCUAUAGACUAGCCCCCGACCCCUACAGGAUGUCCGCCAGGCCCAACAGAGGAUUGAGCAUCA: 0.373 ratio
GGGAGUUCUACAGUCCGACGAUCGUGCAAGGAGAUUAUUCCAACUAGCGAAUUUAUUAACAGUAAAUUGACAGCAAAAGCAAAUAGGCAGCUUCAAGAUCCUUUAGUAAUCAUGACAGGAAACAUCCCGACAUGGCUCACUGACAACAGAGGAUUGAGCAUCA: 0.714 ratio
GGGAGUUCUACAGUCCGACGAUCCAGCUGAUUCACUCAUUGGGAGAGCUGCACAUAUAGCUGUUCUUGAUUCGGAAAUCUUUUUAGAGAAAUUCUUUCUGGUUGCUGCCCUCAAAUAUUUCCAAUAGUAUAAAAGCAUUGUUACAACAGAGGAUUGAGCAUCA: 1.12 ratio
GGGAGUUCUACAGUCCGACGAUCGACAGGGCCCAGGCCCCCGCCACUCAGAGUGACCCACUGGCCACUUCAGCCAGGCCAUUUUGGCUCUGUUUUUUAUUUUAACAGUGCCCUUAUUACCCCUGUAUAUAUGCCUGAGAUUUGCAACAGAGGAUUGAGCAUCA: 0.685 ratio
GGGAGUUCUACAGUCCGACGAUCUUUAAUUAGAGGGUAGUGUAUGUUUCAUAAAGAAGAGUCUUUGUAAUUUUGUUUGUCCUAUAGUAUUUUGGAAUUUGUAUAAUGAGGAUGUUUAGAAGCCCUAUCAAUGGAUUUUUUUAACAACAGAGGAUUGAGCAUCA: 0.955 ratio
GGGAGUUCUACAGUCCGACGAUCGUAUGUGGGGUAGCCUUGGCCCCUGCCUUGGCCUUACCUCUCCUCCCUGUCACCUGUCCCUAGUUAUUUUUUUUUUAACCACCACGUGAUUAUGGUCGGUGCUGCCUUUUCCCGACCUGCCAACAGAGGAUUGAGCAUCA: 6.14 ratio
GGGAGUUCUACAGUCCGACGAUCAGAUUUAUUUCAUGCCCUGGACUCCCUACCGCACUGAUACUUUAAUAGAGUAUGCCUCUAUAGAAGACUUCCAAAACAGUCGCCAAACAACGACAUACAAACUUCCAAACCGCGUAGAUGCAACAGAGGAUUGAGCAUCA: 0.649 ratio
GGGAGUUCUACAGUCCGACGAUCCUUACUUAGAGGGAAAUAUAUGUUUCAUAAGGAAGAGUCUUUAUAAUUUUGUUUGUCAGAUAGUAUUUUGGAAUUUGUAUGAGGAUGUUUAGAAGCCUUAUAAAUGGCUUUUUUUUAACACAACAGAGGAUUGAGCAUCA: 0.764 ratio
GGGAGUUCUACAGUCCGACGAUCACCUCCAAUAGGCUAAUUCAGGGAAAGGAAACAGGCUUCAGGGAAUAUAAAUUAAUAUAGUAGUAGUCAUGAAGAAUAACUUUGAUAUAACUGAUUUGGGGGAGUGAUGGCAACUUGUGACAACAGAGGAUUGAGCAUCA: 1.38 ratio
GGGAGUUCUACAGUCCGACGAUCGCAUGCACAUGCCACUGUCACCAAGAGCGAGCCACCACUUCUCAGAUUUCCGAGCUGUUGUAGUGUUCCCUGUUCCCUACCCUUCCCCCGACUGUGAGAGAUGAGCUGUCCUAAGUUGUUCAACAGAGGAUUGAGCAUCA: 0.785 ratio

Block 2
Target: Sal-like protein 4, full length isoform A (SALL4, Homo sapiens, UniProt Q9UJQ4, residues 1-1053)
Chain of UniProt Q9UJQ4 (whole entry, looked up): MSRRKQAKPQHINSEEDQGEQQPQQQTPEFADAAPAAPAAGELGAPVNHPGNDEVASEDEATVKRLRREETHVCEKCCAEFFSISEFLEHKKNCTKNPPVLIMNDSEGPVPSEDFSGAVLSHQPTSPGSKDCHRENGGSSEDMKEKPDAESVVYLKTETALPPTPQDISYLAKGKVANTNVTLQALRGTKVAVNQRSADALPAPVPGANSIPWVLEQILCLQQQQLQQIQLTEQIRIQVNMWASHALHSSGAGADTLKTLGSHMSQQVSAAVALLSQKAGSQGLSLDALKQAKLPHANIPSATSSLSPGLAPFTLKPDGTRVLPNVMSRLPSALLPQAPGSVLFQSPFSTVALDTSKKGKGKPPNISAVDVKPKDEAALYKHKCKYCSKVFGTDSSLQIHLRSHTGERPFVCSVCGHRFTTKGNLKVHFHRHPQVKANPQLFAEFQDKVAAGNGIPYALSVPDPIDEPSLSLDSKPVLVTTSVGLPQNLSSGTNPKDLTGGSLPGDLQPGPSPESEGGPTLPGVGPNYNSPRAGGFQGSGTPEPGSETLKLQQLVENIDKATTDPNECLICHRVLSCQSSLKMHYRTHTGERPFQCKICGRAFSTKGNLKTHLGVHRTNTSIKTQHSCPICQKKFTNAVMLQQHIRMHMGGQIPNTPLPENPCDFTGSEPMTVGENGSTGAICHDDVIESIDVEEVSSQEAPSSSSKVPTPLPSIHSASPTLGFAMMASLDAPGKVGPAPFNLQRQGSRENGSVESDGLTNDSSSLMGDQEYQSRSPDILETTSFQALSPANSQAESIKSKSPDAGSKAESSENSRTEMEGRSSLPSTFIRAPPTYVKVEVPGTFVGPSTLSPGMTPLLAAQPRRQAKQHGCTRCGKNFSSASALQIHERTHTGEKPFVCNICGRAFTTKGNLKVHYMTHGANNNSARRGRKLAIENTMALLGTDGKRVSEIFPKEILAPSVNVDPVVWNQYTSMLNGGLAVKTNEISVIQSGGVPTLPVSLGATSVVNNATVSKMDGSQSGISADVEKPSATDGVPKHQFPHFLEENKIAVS
Technique: universal PBM
Molecule type: double-stranded DNA, one strand shown
Matrix: in vitro
Concentration: 600 nM
Setting: 8-mer, flanks averaged, mean of replicates
Direction: higher = stronger binding
Measurement: E-score
CGCTAGCG: -0.301
ACTACTTC: 0.0115
ACGTCGAA: -0.0887
GGCAGAAC: -0.109
ACAGGCGA: -0.192
ATTATCAA: 0.347
ATTGATCC: 0.0908
AGAGACAC: -0.0689
ATTAACAA: 0.364
GGGCAGGA: -0.217
AGGCTATA: 0.142
ACTGACGG: -0.168
GGCACAAA: 0.0008
CAAAAAAA: 0.295
GGAGCATA: -0.0219
GCCGCTCC: -0.348
CAAAGCGG: -0.117
CCACAAGA: -0.0348
CCCTACAA: 0.0812
CCAGCCAG: -0.343
TTCGCGAA: 0.142
GCTCCCTA: -0.211
GCCTAGAA: -0.0518
TACGAACA: 0.179

Block 3
Target: Ras GTPase-activating protein-binding protein 1, full length (G3BP1, Homo sapiens, UniProt Q13283)
Chain of UniProt Q13283 (whole entry, looked up): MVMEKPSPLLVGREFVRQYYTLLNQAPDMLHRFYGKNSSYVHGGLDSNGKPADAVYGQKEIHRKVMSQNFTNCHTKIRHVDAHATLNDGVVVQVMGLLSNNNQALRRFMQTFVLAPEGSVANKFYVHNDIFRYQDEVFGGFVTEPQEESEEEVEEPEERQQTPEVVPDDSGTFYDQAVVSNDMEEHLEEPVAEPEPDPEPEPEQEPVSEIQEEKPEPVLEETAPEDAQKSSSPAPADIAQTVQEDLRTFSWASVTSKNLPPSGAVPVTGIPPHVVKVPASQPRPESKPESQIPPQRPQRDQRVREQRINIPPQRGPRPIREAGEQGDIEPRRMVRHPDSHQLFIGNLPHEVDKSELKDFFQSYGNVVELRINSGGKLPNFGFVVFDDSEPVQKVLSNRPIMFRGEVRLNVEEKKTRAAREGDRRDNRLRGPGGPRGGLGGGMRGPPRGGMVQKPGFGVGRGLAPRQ
Technique: RNA Bind-n-Seq
Molecule type: RNA
Matrix: in vitro
Concentration: 200 nM
Setting: whole 134-nt RNA, ends assumed
Together with: 150 mM KCl
Relative to: input library
Direction: higher = stronger binding
Measurement: log2 enrichment
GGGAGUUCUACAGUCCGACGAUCUUCCGGAAGAAGAAGCUCCGAUUUGGCCGGAGCCGGAUCCACGAGUGGGGUCUGUUUGCCAUGGAACCCAUUGCUGCUGACGAGAUGGUCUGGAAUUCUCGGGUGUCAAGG: -1.17
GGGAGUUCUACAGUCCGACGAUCCCCAUUCCAAGAUUUGCUGUUGGCAUUGUAAUAGGAAGAAAUGGAGAGAUGAUCAAAAAAAUACAAAAUGAUGCUGGUGUUCGCAUUCAGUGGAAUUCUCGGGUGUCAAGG: -0.184
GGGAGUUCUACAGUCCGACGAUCUGGGAGGUGGAUUUUGUUUAUUUUUUUAGCUCAUUUCCAGGGGUGGGAAUUUUUUUUUAAUAUGUGUCAUGAAUAAAGUUGUUAUUGAAAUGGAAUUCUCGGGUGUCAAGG: 0.0968
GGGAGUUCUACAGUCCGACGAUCCUCAAGUCCUGUGCUACACAUCGUAUGUACCGAAUCGGAAAGGUUUUUGGUGGAAAGUAUUAUGUUACGCCGUUCGGAUCUGCACUUCCAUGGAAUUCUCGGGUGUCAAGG: -0.651
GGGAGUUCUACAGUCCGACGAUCUGGGAGGUGGAUUUUGUUUAUUUUUUUAGCUCAUUUCCAGGGGUGGGAAUUUUUUUUUAAUAUGUGCCAUGAAUAAAGUUGUUUUUGAAAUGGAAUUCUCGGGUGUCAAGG: 0.11
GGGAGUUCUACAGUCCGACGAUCUGGGAGGUGGAUUUUGUUUAUUUUUUUAGCUCAUUUCCAGGGGUGGGAAUUUUUUUUUAAUAUGUGUCAUGAAUAAAGUUGUGUUUGAAAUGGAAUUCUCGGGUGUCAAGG: 0.39
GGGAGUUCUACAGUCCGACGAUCCAAGUCCUGUGCUACACAUCGUAUGUACCGAAUCGGGUUUUUUUGGGUGGGUGGGAAAGUAUUAUGUUACGCCGUUCGGAUCUGCACUUCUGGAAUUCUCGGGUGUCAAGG: 0.337
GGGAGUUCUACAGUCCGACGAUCUCCUGUGCUACACAUCGUAUGUACCGAAUCGGGCCCCCCGGCCCCCCGGCCCCCCGGGGAAAGUAUUAUGUUACGCCGUUCGGAUCUGCAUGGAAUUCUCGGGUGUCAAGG: -0.133
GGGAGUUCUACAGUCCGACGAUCUCCCAGCCGAGGACGUCGGAUGUCAUCGUCCUUGCUGCUUUGCCACCCCAUUCCCGUCAAUAAAGUGGUUUGAACCCAACCCUGGUGUCGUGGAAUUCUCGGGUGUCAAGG: -0.911
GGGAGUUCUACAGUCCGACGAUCAGUCCUGUGCUACACAUCGUAUGUACCGAAUCGGGCCCCGGGGCCCCGGGGCCCCGGAAAGUAUUAUGUUACGCCGUUCGGAUCUGCACUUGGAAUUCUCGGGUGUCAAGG: 0.374
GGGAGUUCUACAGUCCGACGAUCUCCUGUGCUACACAUCGUAUGUACCGAAUCGGGGCCCCCCGGGCCCCCCGGGCCCCCCGGAAAGUAUUAUGUUACGCCGUUCGGAUCUGCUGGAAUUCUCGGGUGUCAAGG: -0.16
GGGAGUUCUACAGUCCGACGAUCUGCUGGCAGCCAAGCAGCAGCAGGAGAUGCUGGCAGCCAAGCGGCAGCAGGAGCUGGAGCAGCAGCGGCAGCGGGAGCAGCAGCGGCAGGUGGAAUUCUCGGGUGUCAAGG: -0.871
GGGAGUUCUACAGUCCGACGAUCCUGUGCUACACAUCGUAUGUACCGAAUCGGGGAAAAAAAGGGGAAAAAAAGGGAAAAAAAGGAAAGUAUUAUGUUACGCCGUUCGGAUCUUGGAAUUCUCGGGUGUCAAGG: -0.59
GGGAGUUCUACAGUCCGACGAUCCACAGACAACACGCACCCACACAGACACAGAGGGAAGGGGUUGGGAUGGGGACAGGGUGCACAGCAGGGCGGGGUAGGAAACCAGCCCCUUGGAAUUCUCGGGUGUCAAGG: 1.71

Block 4
Target: CCNE2, cyclin fold, Cln2 fusion (human)
Technique: yeast growth competition, sequencing
Matrix: yeast
Setting: strong parent motif
Relative to: not given
Direction: higher = stronger binding
Measurement: normalised enrichment score
Starting sequence: CCP110 docking peptide (human); EKVKRRLDLDIDG
EKVKRRLALDIDG [D8A]: 1.08
AKVKRRLDLDIDG [E1A]: 1.91
EKVKRRLDADIDG [L9A]: 0.225
EKVARRLDLDIDG [K4A]: -0.363
EKVKRALDLDIDG [R6A]: 0.486
EKVKRRLDFDIDG [L9F]: 5.77
EKVKRRLDLDADG [I11A]: 0.87

Block 5
Target: Interferon regulatory factor 7, full length, phosphomimetic (IRF7, Homo sapiens, UniProt Q92985, residues 1-503, S471D/S472D/S475D/S476D/S477D/S483D/S484D/S487D)
Chain of UniProt Q92985 (whole entry, unmodified, looked up): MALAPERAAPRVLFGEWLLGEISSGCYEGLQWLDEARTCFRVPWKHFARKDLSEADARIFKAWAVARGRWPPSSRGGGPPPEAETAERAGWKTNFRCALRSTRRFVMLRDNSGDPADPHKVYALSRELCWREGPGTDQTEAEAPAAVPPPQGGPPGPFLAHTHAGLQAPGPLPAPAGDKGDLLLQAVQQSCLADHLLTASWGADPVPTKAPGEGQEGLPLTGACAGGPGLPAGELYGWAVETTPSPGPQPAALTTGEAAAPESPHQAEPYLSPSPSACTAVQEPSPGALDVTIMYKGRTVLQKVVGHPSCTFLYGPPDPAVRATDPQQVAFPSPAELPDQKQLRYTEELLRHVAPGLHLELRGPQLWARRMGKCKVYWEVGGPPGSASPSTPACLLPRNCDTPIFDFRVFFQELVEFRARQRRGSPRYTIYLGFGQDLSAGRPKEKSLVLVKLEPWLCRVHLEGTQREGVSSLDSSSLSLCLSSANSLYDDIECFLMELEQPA
Technique: protein-binding microarray
Molecule type: double-stranded DNA, one strand shown
Matrix: in vitro
Concentration: 2200 nM top
Setting: 60-bp whole probe
Together with: salmon DNA 0.4 mg/ml
Relative to: random background probes
Direction: higher = stronger binding
Measurement: fitted relative affinity
Shared flanks, not repeated: GCCTAGCAC … GTCTTGATTCGCTTGACGCTGCTG
TTAGGTCTGGGTCTCGGTTAGTGCTAG: 0.22 z-score
ACTTCTCCATTTTTCTAGTCGTGCTAG: 3.02 z-score
GACGATTGCAGTTTCGAGACGTGCTAG: 3.34 z-score
TCAAGAATGTTTTTCATACTGTGCTAG: -0.0926 z-score
TCATTTTTCTTTTATTAACTGTGCTAG: 4.33 z-score
GACGGTATCCGTATCGGGACGTGCTAG: 0.0807 z-score
ATGAGTCTCAATATTAGAGTGTGCTAG: -0.0428 z-score
GACGATATCGGGTTGCGAGACGTGCTA: 0.582 z-score
ATTTTTCTAATTTACTTTGGGTGCTAG: 1.7 z-score
GACAATATCGGGACTGGAGACGTGCTA: -0.195 z-score
TTAGGTATCGGTGTCGGTTAGTGCTAG: 0.65 z-score
TTAGAACTGAGTCTTGATTAGTGCTAG: -0.139 z-score
TTAGGACTGGGGCTCGGTTAGTGCTAG: -0.781 z-score
GACGGTGTCGACACTGGGGACGTGCTA: -0.356 z-score
GACGGACTGGCGACTGGGGACGTGCTA: -0.755 z-score
TTAGGTTGCGGTTCCGGTTAGTGCTAG: 2.04 z-score
GACGATCTCAGTCTCGCGACGTGCTAG: 0.166 z-score
AAACGGATGATCTCTCTGGGCGTGCTA: -0.228 z-score
GACGATATCGGGTTTCGAGACGTGCTA: 1.51 z-score
GACGGTTCCCTTTACCTGACGTGCTAG: 1.74 z-score
TTAGATTTCAGTATCGACTAGTGCTAG: 0.977 z-score
GACGGACTTGACACTGGGGACGTGCTA: -0.513 z-score
TTAGGTATCGGGTTCGGTTAGTGCTAG: 1.7 z-score
GACGGTTTCCTACTGCTTACGTGCTAG: 2.23 z-score
TTAGATCTCAAACTGGATTAGTGCTAG: -0.38 z-score

Further values, each from its own experiment
PhoQ, residues 284 288 289 292 302 303 AMDMFI
fold induction (PhoP, residues 12 14 15 18 19 NHTVL (Escherichia coli, UniProt P23836); Sort-seq, refers to: YFP reporter; E. coli; PhoQ-PhoP variant library, together with: 10 µM Mg2+; relative to: high Mg2+ state, higher = stronger signaling): 0.569

For quick reference, copied from above (block 5):
TCATTTTTCTTTTATTAACTGTGCTAG: 4.33 z-score
GACGATATCGGGTTGCGAGACGTGCTA: 0.582 z-score
TTAGGTATCGGGTTCGGTTAGTGCTAG: 1.7 z-score
GACGATTGCAGTTTCGAGACGTGCTAG: 3.34 z-score
AAACGGATGATCTCTCTGGGCGTGCTA: -0.228 z-score
GACGGTATCCGTATCGGGACGTGCTAG: 0.0807 z-score
